Experimental data gathered from unrelated publications.
Protocols differ between the studies behind these lines. ± gives the spread as reported.

Compound	test	system	setting	scale	endpoint	value
CCc1cc(C(=O)NC)c2nccc(N3CCc4c(cc(Cn5ccnc5)cc4-c4cn(C)nc4C(F)(F)F)C3=O)c2c1	–	Sprague Dawley rats, male, bile duct-cannulated, urine	oral, 50 mg/kg, 0--24 h	–	amount excreted	43000 ± 22000 ng
CCC(C)(C)c1cc(-n2nc3ccccc3n2)c(O)c(C(C)(C)CC)c1	–	reconstructed human epidermis EpiSkin	–	–	absorption factor	94.5 %/36 h
CCCCCOc1ccc(-c2ccc(-c3ccc(C(=O)N[C@H]4C[C@@H](O)[C@@H](OCC[N+](C)(C)C)NC(=O)[C@@H]5[C@@H](O)[C@@H](C)CN5C(=O)[C@H]([C@@H](C)O)NC(=O)[C@H]([C@H](O)[C@@H](O)c5ccc(O)cc5)NC(=O)[C@@H]5C[C@@H](O)CN5C(=O)[C@H]([C@@H](C)O)NC4=O)cc3)cc2)cc1	–	adult patients not in ICU, plasma	intravenous, 400 mg loading, after first dose, geometric mean	–	AUC(0-168 h)	772 µg·h/mL
CC(C)[C@@H](CS(=O)(=O)C(C)C)N1C(=O)[C@@](C)(CC(=O)O)C[C@H](c2cccc(Cl)c2)[C@H]1c1ccc(Cl)cc1	MALDI-MSI	B6.129S7-Rag1tm1Mom/J orthotopic PDX mice, normal brain	25 mg/kg two doses, 2 h after second dose	–	median concentration	450 nmol/L
COc1ccc(C[C@@H]2NC(=O)[C@@H](CC(C)C)NC(=O)[C@H](C)NC(=O)[C@H](CC(C)C)NC(=O)[C@@H](CC(C)C)NC(=O)[C@H]3CCCN3C2=O)cc1	LC/MS	horizontal lipid bilayer	10 µM, 1 h, room temperature, 1% DMSO in PBS	–	Papp	2000 ± 1000 nm/s
C[C@@H](NC(=O)N1C(=O)[C@H](Cc2ccnc(N)c2)[C@H]1C(=O)O)C1CCCCC1	–	healthy adult Chinese volunteers	continuous intravenous infusion, 1.5 mg/kg/h, 5-day infusion, CTCAE 5.0 grading	–	incidence of administration site extravasation	12.5%
CCC[C@@](N)(CO)CCc1ccc(OCCCCCC(C)C)cc1	–	dog, male hounds, plasma	oral capsule, 15 mg/kg, median	–	half-life	16.2 h
CC(C)Nc1ccnc(Nc2cccc(-c3cccnc3)c2)n1	refers to: sodium	mouse, blood	intraperitoneal, 3 mg/kg	–	blood chemistry	156 mmol/L
CC1(C)[C@H](C=C(Cl)Cl)[C@H]1C(=O)OCc1cccc(Oc2ccccc2)c1	refers to: CYP2C19	human, age 6 months, recombinant human CYP2C19	0.1 µM	–	enzyme contribution to clearance	0.23%
Nc1ncnc2c1ncn2[C@@H]1O[C@@H]2COP(=O)([S-])O[C@@H]3[C@H](O)[C@@H](COP([O-])(=S)O[C@H]2[C@H]1O)O[C@H]3n1cnc2c(N)ncnc21.[Na+].[Na+] (stereo partly shown)	–	non-tumor-bearing mice, blood	intravenous, 1 mg/kg, toxicity study	–	eosinophil percentage	5.3 ± 3.05%
CO[C@H]1C[C@@H]2CC[C@@H](C)[C@@](O)(O2)C(=O)C(=O)N2CCCC[C@H]2C(=O)O[C@H]([C@H](C)C[C@@H]2CC[C@@H](OC(=O)NCCOCCOCCOCCOCCOCCOCCOCCOCCC(=O)N3CCc4cc(Cn5nc(-c6ccc7oc(N)nc7c6)c6c(N)ncnc65)ccc4C3)[C@H](OC)C2)C[C@@H](O)[C@H](C)/C=C(\C)[C@@H](O)[C@@H](OC)C(=O)[C@H](C)C[C@H](C)/C=C/C=C/C=C/1C	phase 1 dose escalation, refers to: nausea	advanced solid tumour patients	intravenous, 8 mg weekly, any grade	–	TRAE incidence	37.5%
COc1ncccc1-c1cnn2ccc(N3CCN(C(=O)OC(C)C)CC3)nc12	–	mouse nerve ligation model, brain	oral, 30 mg/kg, 120 min after last dose, repeat dosing day 1	–	drug concentration	24 µM
CCCSc1ccc2nc(NC(=O)OC)[nH]c2c1	–	mouse, blood	oral, 50 mg/kg	–	white blood cell count	7.16 10⁹/L
Cc1cnc(N2CC3(CCOCC3)C2)c(C(=O)Nc2ccc(C(=O)N3CCc4cc(C(=O)Nc5c(C)cccc5F)sc4-c4ccccc43)cc2)c1	–	dog	inhaled, dose not given, 14 days	–	NOEL	14.5 mg/kg/day
O=C(Nc1ccccc1)C1CCN(C(=O)Oc2cccnc2)CC1	Bond-Lader VAS	healthy women	oral, 60 mg	reference: pre-dose baseline, direction not given	change in Incompetent-Proficient score	7.5
CC(C)(O)c1cc(Nc2cc(Oc3cn(C4CC4)nc3C3CCOCC3)ccn2)ccn1	–	patients with advanced cancer, Japanese cohort	oral, dose not given, treatment-related adverse events	–	AST increased, any grade	33%
C[C@@H]1NC(=O)[C@H](CCCCNC(=O)CO/N=C/C(=O)NCCCC[C@@H]2NC(=O)[C@@H](Cc3ccccc3)NC(=O)[C@H](CC(=O)O)NC(=O)CNC(=O)[C@H](CCCNC(=N)N)NC2=O)NC(=O)CNC(=O)[C@@H]2CCCN2C(=O)[C@H](CCCCNC(=O)CO/N=C/C(=O)NCCCC[C@@H]2NC(=O)[C@@H](Cc3ccccc3)NC(=O)[C@H](CC(=O)O)NC(=O)CNC(=O)[C@H](CCCNC(=N)N)NC2=O)NC(=O)[C@H](CCCCNC(=O)CCNC(=O)CCNC(=O)CCNC(=O)[C@H](CCCCN)NC(=O)[C@H](Cc2ccccc2)NC(=O)CNC(=O)CN2CCCNCCNCCCNCC2)NC(=O)[C@H](CCCCNC(=O)CO/N=C/C(=O)NCCCC[C@@H]2NC(=O)[C@@H](Cc3ccccc3)NC(=O)[C@H](CC(=O)O)NC(=O)CNC(=O)[C@H](CCCNC(=N)N)NC2=O)NC(=O)CNC(=O)[C@@H]2CCCN2C(=O)[C@H](CCCCNC(=O)CO/N=C/C(=O)NCCCC[C@@H]2NC(=O)[C@@H](Cc3ccccc3)NC(=O)[C@H](CC(=O)O)NC(=O)CNC(=O)[C@H](CCCNC(=N)N)NC2=O)NC1=O [copper-64 labelled]	–	normal mice, blood	intravenous, 0.74 MBq, 24 h post-injection	–	tissue uptake	0.13 ± 0.02 %ID/g
[Cl][212Pb][Cl]	refers to: 212Pb	athymic mouse, C4-2 prostate xenograft, spleen	intravenous, 2 h, below quantification limit	–	tissue uptake	0.99 ± 0.48 %ID/g
C[C@]1(CO)Cc2ncn(-c3ccc(C#N)c(Cl)c3)c2C(=O)O1	–	human	3 mg multiple doses, fasted	–	subjects with any TEAE	55.6%

Compound	test	system	setting	scale	endpoint	value
Cn1c(-c2ccc(C(N)=O)cc2F)nnc1C(C)(C)Oc1c(F)cc(Cl)cc1F	–	human	oral, 6 mg, single ascending dose	–	nervous system disorder TEAE	0%
O.O.O.O.O.O.[Cl-].[Cl-].[Co+2]	–	rat male, faeces	oral gavage, 10 mg/kg single, day 1, pooled samples	reference: vehicle control subtracted	cobalt in faeces	41.1 µg/g
O=c1ccc2ccc3occc3c2o1	post-procedure stability	rat plasma	200 ng/mL, 3 h, room temperature	–	accuracy	115%
Cc1nc(Nc2ncc(C(=O)Nc3c(C)cccc3Cl)s2)cc(N2CCN(CCO)CC2)n1	–	human	oral, 100 mg	–	deaths	0%
CCc1nc(C(N)=O)c(Nc2ccc(N3CCC(N4CCN(C)CC4)CC3)c(OC)c2)nc1NC1CCOCC1	–	patients, plasma	oral, 200 mg once daily, cycle 1 day 15, median	–	Cmin	1.17 µg/mL
Cc1cccc(Cn2nc(C3CC3)c3c(NC(=O)c4cnc5cc(OCCN6CCN(C)CC6)ccn45)cccc32)n1	CTCAE v4.03, refers to: maculopapular rash	patients with advanced solid tumours	oral, 400 mg, dose escalation, added: pembrolizumab 2 mg/kg IV every 3 weeks	–	all-cause adverse events	14.3%
O=[N+]([O-])c1ccc2c(c1)S(=O)(=O)C=C2	–	male C57BL/6 mice, blood	intraperitoneal, 20 mg/kg, day 8, group average	–	haemoglobin	187 g/L
C[C@@H]1OC(=O)NN=C1c1ccc(-c2ccc(F)cc2)c(C(F)(F)F)c1	phase I trial, refers to: Presyncope all grades	human patients	20 mg loading then 1 mg daily	–	patients with adverse event	0%
CC[C@H](C)[C@H](NC(=O)[C@H](Cc1ccccc1)NC(=O)[C@H](CCC(=O)O)NC(=O)[C@H](CCCCN)NC(=O)[C@H](C)NC(=O)[C@H](C)NC(=O)[C@H](CCC(N)=O)NC(=O)CNC(=O)[C@H](CCC(=O)O)NC(=O)[C@H](CC(C)C)NC(=O)[C@H](Cc1ccc(O)cc1)NC(=O)[C@H](CO)NC(=O)[C@H](CO)NC(=O)[C@@H](NC(=O)[C@H](CC(=O)O)NC(=O)[C@H](CO)NC(=O)[C@@H](NC(=O)[C@H](Cc1ccccc1)NC(=O)[C@@H](NC(=O)CNC(=O)[C@H](CCC(=O)O)NC(=O)[C@H](C)NC(=O)N(N)Cc1c[nH]cn1)[C@@H](C)O)[C@@H](C)O)C(C)C)C(=O)N[C@@H](C)C(=O)N[C@@H](Cc1c[nH]c2ccccc12)C(=O)N[C@@H](CC(C)C)C(=O)N[C@H](C(=O)N[C@@H](CCCNC(=N)N)C(=O)NCC(=O)N[C@@H](CCCNC(=N)N)C(=O)NCC(=O)O)C(C)C	–	male ICR mice, plasma	intravenous, 1 mg/kg	–	clearance	0.421 L/h/kg
Oc1ccc(CCc2cc(O)cc(O)c2)cc1	–	human, both sexes, cerebrospinal fluid	–	–	samples above LOQ	0%
COc1cc2c(Oc3ccc4[nH]c(C)cc4c3F)ccnc2cc1OCC1(N)CC1	–	paediatric refractory sarcoma patients	12 mg	–	AST elevation incidence	54.5%
CN1CCN(c2cccc3c2CCN(C(=O)/C=C/c2c(-n4cnnn4)ccc(Cl)c2F)[C@@H]3C(=O)Nc2ccc(C(=O)O)cc2)C(=O)C1	–	healthy human subjects	intravenous infusion, 1 mg/h, 5 days	–	deaths	0%
CC(C)[C@@H]1NC(=O)CNC(=O)[C@H](CC(N)=O)NC(=O)[C@H](CCCNC(=N)N)NC(=O)[C@H](Cc2ccc(O)cc2)NC(=O)[C@H](C(C)C)NC(=O)[C@@H](NC(=O)[C@@H](NC(=O)[C@H](CC(N)=O)NC(=O)[C@H](Cc2c[nH]c3ccccc23)NC(=O)[C@H](C)NC(=O)[C@H](Cc2ccccc2)NC(=O)CN)C(C)C)CSSC[C@@H](C(=O)N[C@@H](Cc2cnc[nH]2)C(=O)N[C@@H](CCCNC(=N)N)C(=O)N[C@@H](CCCNC(=N)N)C(=O)N[C@@H](C)C(=O)N[C@@H](CC(N)=O)C(N)=O)NC(=O)[C@H](C(C)C)NC(=O)[C@H](CCCNC(=N)N)NC1=O	–	ICR mouse, serum	ip, 5 mg/kg, 3 d dosing, blood day 5	–	blood urea nitrogen	9.97 ± 0.52 mmol/L
CC(C)C(=O)OC[C@H]1O[C@@H](n2ccc(NO)nc2=O)[C@H](O)[C@@H]1O	–	rat fetus dialysate	250 ng/mL, 6 h, 10 °C, high QC concentration, added: NHC 1000 ng/mL	–	autosampler stability	99.7 ± 2.02%
CN1CC[C@@H](c2c(O)cc(O)c3c(=O)cc(-c4ccc(C(F)(F)F)cc4Cl)oc23)[C@@H]1CO	refers to: Hyperglycemia	relapsed or refractory haematological malignancies	oral, dose not given, grade 3 to 4, all arms	–	patients with adverse event	5%
CCc1ccc(CC/C=C/c2ccc3c(c2)C(=O)CC3)cc1	–	Sprague-Dawley rat, female	oral, 30 mg/kg/day, 14 days	–	Lymphocyte percentage	82.2%
CC(=O)c1c(C)c2cnc(Nc3ccc(C4CCN(CCS(C)(=O)=O)CC4)cn3)nc2n(C2CCCC2)c1=O	–	human patients, plasma	oral, 75 mg twice daily, day 21 multiple doses, added: fulvestrant	–	AUC(0-t)	1.2 µg·h/mL
COS(C)(=O)=O	alkaline comet	male Hsd:ICR (CD-1) mouse, liver	oral, 40 mg/kg/day, positive control	–	tail DNA	17.4%

A few entries again:
Compound	test	system	setting	scale	endpoint	value
CCC(C)(C)c1cc(-n2nc3ccccc3n2)c(O)c(C(C)(C)CC)c1	–	reconstructed human epidermis EpiSkin	–	–	absorption factor	94.5 %/36 h
CCCCCOc1ccc(-c2ccc(-c3ccc(C(=O)N[C@H]4C[C@@H](O)[C@@H](OCC[N+](C)(C)C)NC(=O)[C@@H]5[C@@H](O)[C@@H](C)CN5C(=O)[C@H]([C@@H](C)O)NC(=O)[C@H]([C@H](O)[C@@H](O)c5ccc(O)cc5)NC(=O)[C@@H]5C[C@@H](O)CN5C(=O)[C@H]([C@@H](C)O)NC4=O)cc3)cc2)cc1	–	adult patients not in ICU, plasma	intravenous, 400 mg loading, after first dose, geometric mean	–	AUC(0-168 h)	772 µg·h/mL
CC(C)[C@@H](CS(=O)(=O)C(C)C)N1C(=O)[C@@](C)(CC(=O)O)C[C@H](c2cccc(Cl)c2)[C@H]1c1ccc(Cl)cc1	MALDI-MSI	B6.129S7-Rag1tm1Mom/J orthotopic PDX mice, normal brain	25 mg/kg two doses, 2 h after second dose	–	median concentration	450 nmol/L
